Measured values from different studies.
Parts stem from different laboratories: compare values within a part only. Several values in a cell are separate wells, animals, samples, runs or records.
UniProt Q14680, sequence (whole entry, looked up): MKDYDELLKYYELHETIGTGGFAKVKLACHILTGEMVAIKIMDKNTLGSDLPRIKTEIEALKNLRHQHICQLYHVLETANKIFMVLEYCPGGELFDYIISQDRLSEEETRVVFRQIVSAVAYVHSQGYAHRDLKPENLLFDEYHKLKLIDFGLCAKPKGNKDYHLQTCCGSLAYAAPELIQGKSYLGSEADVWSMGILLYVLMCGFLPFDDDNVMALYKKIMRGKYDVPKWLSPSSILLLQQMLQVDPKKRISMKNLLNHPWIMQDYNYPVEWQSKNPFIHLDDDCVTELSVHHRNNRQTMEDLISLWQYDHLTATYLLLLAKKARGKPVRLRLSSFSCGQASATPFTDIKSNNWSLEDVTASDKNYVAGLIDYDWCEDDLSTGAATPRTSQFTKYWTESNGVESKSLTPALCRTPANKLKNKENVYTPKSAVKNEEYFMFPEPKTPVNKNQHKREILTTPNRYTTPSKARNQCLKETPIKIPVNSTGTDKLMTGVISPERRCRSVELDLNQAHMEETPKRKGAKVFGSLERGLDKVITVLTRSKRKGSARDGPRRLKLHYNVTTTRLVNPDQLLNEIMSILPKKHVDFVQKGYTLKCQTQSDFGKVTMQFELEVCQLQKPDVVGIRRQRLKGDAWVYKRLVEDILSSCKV
UniProt Q13557, sequence (whole entry, looked up): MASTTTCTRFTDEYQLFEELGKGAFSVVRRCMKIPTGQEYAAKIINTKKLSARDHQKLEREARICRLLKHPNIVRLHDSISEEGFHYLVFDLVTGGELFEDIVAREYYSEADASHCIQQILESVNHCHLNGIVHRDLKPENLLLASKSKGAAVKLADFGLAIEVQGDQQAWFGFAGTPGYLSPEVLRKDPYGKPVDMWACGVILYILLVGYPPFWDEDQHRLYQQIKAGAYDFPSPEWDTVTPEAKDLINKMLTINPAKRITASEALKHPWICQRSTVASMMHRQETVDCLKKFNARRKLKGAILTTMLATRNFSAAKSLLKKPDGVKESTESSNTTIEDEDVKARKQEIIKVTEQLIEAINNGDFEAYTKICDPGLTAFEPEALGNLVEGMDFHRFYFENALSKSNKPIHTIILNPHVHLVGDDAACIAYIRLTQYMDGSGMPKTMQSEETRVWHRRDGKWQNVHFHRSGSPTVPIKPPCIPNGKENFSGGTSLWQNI
UniProt Q9UBS0, sequence (whole entry, looked up): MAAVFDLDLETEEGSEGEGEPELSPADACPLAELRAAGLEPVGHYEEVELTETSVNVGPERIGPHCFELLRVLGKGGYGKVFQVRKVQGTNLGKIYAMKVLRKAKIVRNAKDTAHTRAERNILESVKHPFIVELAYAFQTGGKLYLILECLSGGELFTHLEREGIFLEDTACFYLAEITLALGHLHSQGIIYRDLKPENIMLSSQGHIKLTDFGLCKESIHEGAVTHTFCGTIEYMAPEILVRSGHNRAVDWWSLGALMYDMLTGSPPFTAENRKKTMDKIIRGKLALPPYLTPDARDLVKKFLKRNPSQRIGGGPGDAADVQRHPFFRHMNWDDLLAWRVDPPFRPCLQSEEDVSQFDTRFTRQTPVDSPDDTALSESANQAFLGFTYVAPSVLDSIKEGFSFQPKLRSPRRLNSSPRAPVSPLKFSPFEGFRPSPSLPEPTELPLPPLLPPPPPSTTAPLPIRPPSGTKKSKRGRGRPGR
UniProt Q14012, sequence (whole entry, looked up): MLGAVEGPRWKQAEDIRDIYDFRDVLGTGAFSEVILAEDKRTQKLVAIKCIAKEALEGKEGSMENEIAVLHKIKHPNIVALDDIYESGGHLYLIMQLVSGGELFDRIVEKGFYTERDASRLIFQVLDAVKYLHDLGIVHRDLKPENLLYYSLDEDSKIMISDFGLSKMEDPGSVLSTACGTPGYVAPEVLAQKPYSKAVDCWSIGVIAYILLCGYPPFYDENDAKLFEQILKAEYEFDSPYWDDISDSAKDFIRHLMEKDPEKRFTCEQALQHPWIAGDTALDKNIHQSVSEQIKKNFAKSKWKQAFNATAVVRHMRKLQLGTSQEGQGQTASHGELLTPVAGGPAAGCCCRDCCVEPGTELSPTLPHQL
UniProt P06401, sequence (whole entry, looked up): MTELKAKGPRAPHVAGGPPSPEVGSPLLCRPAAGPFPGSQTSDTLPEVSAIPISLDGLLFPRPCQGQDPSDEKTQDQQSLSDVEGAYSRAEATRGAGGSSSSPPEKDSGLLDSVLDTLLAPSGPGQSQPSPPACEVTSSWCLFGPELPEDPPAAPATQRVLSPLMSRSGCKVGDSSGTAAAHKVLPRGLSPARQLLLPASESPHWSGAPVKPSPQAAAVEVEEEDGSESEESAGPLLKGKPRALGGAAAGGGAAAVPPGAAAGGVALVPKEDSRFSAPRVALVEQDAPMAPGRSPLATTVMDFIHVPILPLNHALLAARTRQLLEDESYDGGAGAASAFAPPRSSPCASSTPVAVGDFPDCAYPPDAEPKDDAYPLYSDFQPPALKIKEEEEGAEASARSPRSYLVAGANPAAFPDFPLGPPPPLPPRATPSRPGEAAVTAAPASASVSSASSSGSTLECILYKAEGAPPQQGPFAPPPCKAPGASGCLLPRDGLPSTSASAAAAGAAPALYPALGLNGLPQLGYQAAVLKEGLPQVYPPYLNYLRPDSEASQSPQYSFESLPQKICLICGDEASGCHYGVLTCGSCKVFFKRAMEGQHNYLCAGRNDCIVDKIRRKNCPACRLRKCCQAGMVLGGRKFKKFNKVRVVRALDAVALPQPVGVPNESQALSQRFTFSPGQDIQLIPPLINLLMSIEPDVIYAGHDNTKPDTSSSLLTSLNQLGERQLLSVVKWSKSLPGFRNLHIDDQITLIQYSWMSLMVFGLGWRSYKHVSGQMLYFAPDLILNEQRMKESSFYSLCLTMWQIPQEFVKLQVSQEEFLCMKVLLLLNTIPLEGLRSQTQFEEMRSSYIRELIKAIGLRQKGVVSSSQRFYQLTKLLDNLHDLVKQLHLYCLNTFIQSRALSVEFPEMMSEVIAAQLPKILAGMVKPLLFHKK

Sample 1 — SMILES: COc1ccc2c(c1)/C(=C/c1cnc[nH]1)C(=O)N2; read-out: enzyme activity; mode: inhibitor; tested at: 0.5 µM; baseline: control
Maternal embryonic leucine zipper kinase (MELK, Homo sapiens, UniProt Q14680) — remaining activity: 36.5%.
Ribosomal protein S6 kinase beta-2 (RPS6KB2, Homo sapiens, UniProt Q9UBS0) — remaining activity: 98.7%.
The remaining activity was 101% (Receptor tyrosine-protein kinase erbB-2 (ERBB2, Homo sapiens, UniProt P04626)).

Sample 2 — read-out: enzyme activity; mode: inhibitor; tested at: 10 µM
Target: Calcium/calmodulin-dependent protein kinase type II subunit alpha (CAMK2A, Homo sapiens, UniProt Q9UQM7)
UniProt Q9UQM7, sequence (whole entry, looked up): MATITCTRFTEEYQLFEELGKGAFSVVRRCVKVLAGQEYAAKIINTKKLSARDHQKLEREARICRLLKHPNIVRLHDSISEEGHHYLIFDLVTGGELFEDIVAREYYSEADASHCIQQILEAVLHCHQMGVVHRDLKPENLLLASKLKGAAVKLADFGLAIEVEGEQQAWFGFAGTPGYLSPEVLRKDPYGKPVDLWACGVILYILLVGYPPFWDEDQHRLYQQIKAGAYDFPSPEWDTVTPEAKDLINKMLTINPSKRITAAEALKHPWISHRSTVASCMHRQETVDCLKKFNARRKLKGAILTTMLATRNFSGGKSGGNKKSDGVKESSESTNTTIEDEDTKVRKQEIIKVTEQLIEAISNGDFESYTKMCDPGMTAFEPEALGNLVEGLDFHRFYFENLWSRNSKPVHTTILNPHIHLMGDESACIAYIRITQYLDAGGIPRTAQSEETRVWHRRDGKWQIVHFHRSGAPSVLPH
With COc1ccc(C(CN(C)C)C2(O)CCCCC2)cc1 (stereo not drawn) the inhibition was -12%.
With CN1CC[C@@]23C=C[C@H](O)C[C@@H]2Oc2c(O)ccc(c23)C1 the inhibition was 13%.
With C[C@H]1CC[C@@H]2N(C1)C[C@H]1[C@@H]3C[C@H]4[C@@H](CC(=O)[C@H]5C[C@@H](O)CC[C@@]54C)[C@@H]3CC[C@H]1[C@]2(C)O the inhibition was 8%.
The inhibition of O=c1ccc2cc(O[C@@H]3O[C@H](CO)[C@@H](O)[C@H](O)[C@H]3O)c(O)cc2o1 is reported as -8%.
With C[C@H]1C(=O)O[C@@H]2CCN3CC=C(COC(=O)[C@](C)(O)[C@]1(C)O)[C@H]23 the inhibition was -4%.

Sample 3
SMILES: COC(=O)c1cc(N(C)C(=O)c2ccn3ncc(-c4ccc(C(=O)O)cc4)c3c2)ccc1Cl
It gave 19.2 µM for IC50 (Glycogen synthase kinase-3 beta (GSK3B, Homo sapiens, UniProt P49841); enzyme activity, inhibitor).
Serine/threonine-protein kinase Nek11 (NEK11, Homo sapiens, UniProt Q8NG66); enzyme activity, inhibitor — IC50: > 30 µM.
It gave > 30 µM for IC50 (5-hydroxytryptamine receptor 2B (HTR2B, Homo sapiens, UniProt P41595); cell-free assay).
Calcium/calmodulin-dependent protein kinase type 1 (CAMK1, Homo sapiens, UniProt Q14012); enzyme activity, inhibitor — IC50: > 30 µM.
The IC50 was > 30 µM (Prothrombin (F2, Homo sapiens, UniProt P00734); cell-free assay).
Prostaglandin G/H synthase 2 (PTGS2, Homo sapiens, UniProt P35354); cell-free assay, inhibitor — IC50: > 30 µM.
For Progesterone receptor (PGR, Homo sapiens, UniProt P06401); cell-free assay: IC50 read > 30 µM.
For Androgen receptor (AR, Homo sapiens, UniProt P10275); cell-free assay: IC50 read > 30 µM.
For Calcium/calmodulin-dependent protein kinase type II subunit delta (CAMK2D, Homo sapiens, UniProt Q13557); enzyme activity, inhibitor: IC50 read 4.25 µM.

Further values, each from its own experiment
With CO[C@@H]1[C@@H](OC(N)=O)[C@@H](O)[C@H](Oc2ccc3c(O)c(NC(=O)c4ccc(O)c(CC=C(C)C)c4)c(=O)oc3c2C)OC1(C)C the survival time was 21 days and 47 days and 29 days and 14 days and 38 days and 11 days and 34 days (FVB/129P2 mice, Brca1-/- TNBC; dose not given).

A few entries again (sample 3):
Calcium/calmodulin-dependent protein kinase type 1 (CAMK1, Homo sapiens, UniProt Q14012); enzyme activity, inhibitor — IC50: > 30 µM.
